Experimental data of several laboratories.
Every numbered part comes from another study and shows a few of its results, in no order. Changes are numbered by the printed parent chain.

Block 1
Target: Prothrombin, mature alpha-thrombin (F2, Homo sapiens, UniProt P00734)
Technique: aptamer microarray, sandwich
Molecule type: DNA with 2'F-ANA
Matrix: in vitro
Concentration: 200 nM
Notes: whole 15-mer aptamer, many near background
Together with: Cy3 exosite-II aptamer, 400 nM
Direction: higher = stronger binding
Oligonucleotide: GGTTGGTGTGGTTGG
`2'F-ANA at 3 4 6 11 12 13 14 15` — result for “mean fluorescence intensity”: 261 a.u.
Under “mean fluorescence intensity”, `2'F-ANA at 2 3 4 5 8 11 12 14 15` is recorded as 57.7 a.u.
`2'F-ANA at 2 3 8 9 11 14 15` — result for “mean fluorescence intensity”: 386 a.u.
For `2'F-ANA at 1 8 10 11 12 14 15`, “mean fluorescence intensity” read 54.3 a.u.
Under “mean fluorescence intensity”, `2'F-ANA at 1 4 6 8 12 13 15` is recorded as 217 a.u.
For `2'F-ANA at 3 5 6 8 12 13 14 15`, “mean fluorescence intensity” read 72.8 a.u.
For `2'F-ANA at 2 6 11 12 13 14`, “mean fluorescence intensity” read 137 a.u.

Block 2
Target: Sal-like protein 4, full length isoform A (SALL4, Homo sapiens, UniProt Q9UJQ4, residues 1-1053)
Sequence of UniProt Q9UJQ4 (whole entry, looked up): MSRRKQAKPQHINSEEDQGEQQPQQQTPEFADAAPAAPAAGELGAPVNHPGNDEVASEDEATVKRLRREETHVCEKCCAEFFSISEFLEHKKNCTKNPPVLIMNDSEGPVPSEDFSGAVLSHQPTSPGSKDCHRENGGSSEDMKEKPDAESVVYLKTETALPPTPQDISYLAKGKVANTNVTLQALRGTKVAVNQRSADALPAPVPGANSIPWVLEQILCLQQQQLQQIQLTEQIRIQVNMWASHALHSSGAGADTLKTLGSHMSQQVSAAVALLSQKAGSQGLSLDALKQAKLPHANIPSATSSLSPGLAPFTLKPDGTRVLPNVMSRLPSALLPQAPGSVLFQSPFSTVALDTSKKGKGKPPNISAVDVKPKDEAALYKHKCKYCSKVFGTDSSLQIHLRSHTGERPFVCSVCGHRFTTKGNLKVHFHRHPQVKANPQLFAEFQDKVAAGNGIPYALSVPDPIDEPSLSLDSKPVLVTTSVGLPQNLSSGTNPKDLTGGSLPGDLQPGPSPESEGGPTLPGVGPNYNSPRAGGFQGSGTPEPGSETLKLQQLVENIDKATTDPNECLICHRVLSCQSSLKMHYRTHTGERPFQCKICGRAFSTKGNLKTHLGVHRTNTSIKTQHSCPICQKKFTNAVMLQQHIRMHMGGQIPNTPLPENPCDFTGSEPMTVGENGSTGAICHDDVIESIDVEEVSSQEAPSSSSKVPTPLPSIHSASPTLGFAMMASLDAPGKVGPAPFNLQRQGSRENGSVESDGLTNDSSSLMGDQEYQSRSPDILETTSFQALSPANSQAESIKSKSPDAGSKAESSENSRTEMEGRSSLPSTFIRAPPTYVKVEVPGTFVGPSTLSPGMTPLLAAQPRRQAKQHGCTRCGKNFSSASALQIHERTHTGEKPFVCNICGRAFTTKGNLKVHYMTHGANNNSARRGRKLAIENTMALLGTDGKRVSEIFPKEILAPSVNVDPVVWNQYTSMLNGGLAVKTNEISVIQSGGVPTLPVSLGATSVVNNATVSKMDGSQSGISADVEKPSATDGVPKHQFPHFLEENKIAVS
Technique: universal PBM
Molecule type: double-stranded DNA, one strand shown
Matrix: in vitro
Concentration: 600 nM
Notes: 8-mer, flanks averaged, mean of replicates
Direction: higher = stronger binding
`ATCAGTTC` gave an E-score of -0.071.
The E-score of `CAGTGGGG` is reported as -0.35.
With `AGCTCACG` the E-score was -0.189.
For `GCTATTGA`, the E-score was 0.0778.
`CACTGATA` has an E-score of 0.0933.
`AGCAGCGA` gave an E-score of -0.0322.
With `ACTCGGTA` the E-score was -0.00505.

Block 3
Target: CCNB2, cyclin fold, Cln2 fusion (human)
Technique: yeast growth competition, sequencing
Matrix: yeast
Notes: weak parent motif
Relative to: not given
Direction: higher = stronger binding
Starting sequence: RBL1 docking peptide (human); GSAKRRLFGEDPP
Under “normalised enrichment score”, `K4Y` is recorded as 0.00115.
Under “normalised enrichment score”, `R5Q` is recorded as -0.395.
Under “normalised enrichment score”, `R6F` is recorded as -0.207.
`K4H` — result for “normalised enrichment score”: -0.313.

Further values, each from its own experiment
The fold induction of `PhoQ, residues 284 288 289 292 302 303 SCKMEA` is reported as 18.5 (PhoP, residues 12 14 15 18 19 LHTVM (Escherichia coli, UniProt P23836); Sort-seq, refers to: YFP reporter; E. coli; PhoQ-PhoP variant library, together with: 10 µM Mg2+; relative to: high Mg2+ state, higher = stronger signaling).

Some of these lines once more (block 2):
`ATCAGTTC` gave an E-score of -0.071.
With `ACTCGGTA` the E-score was -0.00505.
`AGCAGCGA` gave an E-score of -0.0322.
